Published values from different studies.
Every numbered part comes from another study and shows a few of its results, in no order. Positions count from the first letter of the parent shown.
Sequence of UniProt P48729 (whole entry, looked up): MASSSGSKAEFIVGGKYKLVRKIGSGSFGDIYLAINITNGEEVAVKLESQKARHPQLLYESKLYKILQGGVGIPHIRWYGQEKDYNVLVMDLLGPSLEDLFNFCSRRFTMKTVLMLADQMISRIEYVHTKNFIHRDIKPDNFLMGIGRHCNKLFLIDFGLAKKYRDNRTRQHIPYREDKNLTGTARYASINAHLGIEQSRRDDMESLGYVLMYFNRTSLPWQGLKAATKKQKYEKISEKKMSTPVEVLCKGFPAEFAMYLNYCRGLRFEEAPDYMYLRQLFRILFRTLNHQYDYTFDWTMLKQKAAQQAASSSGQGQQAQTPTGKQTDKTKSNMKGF
Sequence of UniProt Q9HC98 (whole entry, looked up): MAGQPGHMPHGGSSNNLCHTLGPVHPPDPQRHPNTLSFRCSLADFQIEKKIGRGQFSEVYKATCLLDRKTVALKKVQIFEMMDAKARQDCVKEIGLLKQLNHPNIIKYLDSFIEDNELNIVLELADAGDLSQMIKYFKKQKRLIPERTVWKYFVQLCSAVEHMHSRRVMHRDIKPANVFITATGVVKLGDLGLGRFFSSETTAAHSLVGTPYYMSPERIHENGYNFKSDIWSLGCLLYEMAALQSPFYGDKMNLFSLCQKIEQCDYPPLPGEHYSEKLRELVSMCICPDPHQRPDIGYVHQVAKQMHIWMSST
Sequence of UniProt Q8NI60 (whole entry, looked up): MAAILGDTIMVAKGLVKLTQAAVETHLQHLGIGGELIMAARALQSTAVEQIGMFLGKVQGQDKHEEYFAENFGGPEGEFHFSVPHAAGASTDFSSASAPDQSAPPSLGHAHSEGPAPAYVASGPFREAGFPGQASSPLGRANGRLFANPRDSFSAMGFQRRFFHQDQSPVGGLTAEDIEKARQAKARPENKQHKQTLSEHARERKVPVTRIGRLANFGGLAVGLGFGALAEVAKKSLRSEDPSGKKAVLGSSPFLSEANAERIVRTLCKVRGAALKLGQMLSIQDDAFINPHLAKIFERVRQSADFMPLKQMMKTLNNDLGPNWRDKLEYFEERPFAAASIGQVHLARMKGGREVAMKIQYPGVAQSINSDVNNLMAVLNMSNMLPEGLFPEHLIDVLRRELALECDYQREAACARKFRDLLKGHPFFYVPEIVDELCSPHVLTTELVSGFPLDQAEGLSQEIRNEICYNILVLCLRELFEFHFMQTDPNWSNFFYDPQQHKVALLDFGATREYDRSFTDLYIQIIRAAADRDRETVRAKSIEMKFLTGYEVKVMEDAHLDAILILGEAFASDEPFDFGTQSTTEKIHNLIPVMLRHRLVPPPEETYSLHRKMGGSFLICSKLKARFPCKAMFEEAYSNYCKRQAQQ
Sequence of UniProt Q9Y6R4 (whole entry, looked up): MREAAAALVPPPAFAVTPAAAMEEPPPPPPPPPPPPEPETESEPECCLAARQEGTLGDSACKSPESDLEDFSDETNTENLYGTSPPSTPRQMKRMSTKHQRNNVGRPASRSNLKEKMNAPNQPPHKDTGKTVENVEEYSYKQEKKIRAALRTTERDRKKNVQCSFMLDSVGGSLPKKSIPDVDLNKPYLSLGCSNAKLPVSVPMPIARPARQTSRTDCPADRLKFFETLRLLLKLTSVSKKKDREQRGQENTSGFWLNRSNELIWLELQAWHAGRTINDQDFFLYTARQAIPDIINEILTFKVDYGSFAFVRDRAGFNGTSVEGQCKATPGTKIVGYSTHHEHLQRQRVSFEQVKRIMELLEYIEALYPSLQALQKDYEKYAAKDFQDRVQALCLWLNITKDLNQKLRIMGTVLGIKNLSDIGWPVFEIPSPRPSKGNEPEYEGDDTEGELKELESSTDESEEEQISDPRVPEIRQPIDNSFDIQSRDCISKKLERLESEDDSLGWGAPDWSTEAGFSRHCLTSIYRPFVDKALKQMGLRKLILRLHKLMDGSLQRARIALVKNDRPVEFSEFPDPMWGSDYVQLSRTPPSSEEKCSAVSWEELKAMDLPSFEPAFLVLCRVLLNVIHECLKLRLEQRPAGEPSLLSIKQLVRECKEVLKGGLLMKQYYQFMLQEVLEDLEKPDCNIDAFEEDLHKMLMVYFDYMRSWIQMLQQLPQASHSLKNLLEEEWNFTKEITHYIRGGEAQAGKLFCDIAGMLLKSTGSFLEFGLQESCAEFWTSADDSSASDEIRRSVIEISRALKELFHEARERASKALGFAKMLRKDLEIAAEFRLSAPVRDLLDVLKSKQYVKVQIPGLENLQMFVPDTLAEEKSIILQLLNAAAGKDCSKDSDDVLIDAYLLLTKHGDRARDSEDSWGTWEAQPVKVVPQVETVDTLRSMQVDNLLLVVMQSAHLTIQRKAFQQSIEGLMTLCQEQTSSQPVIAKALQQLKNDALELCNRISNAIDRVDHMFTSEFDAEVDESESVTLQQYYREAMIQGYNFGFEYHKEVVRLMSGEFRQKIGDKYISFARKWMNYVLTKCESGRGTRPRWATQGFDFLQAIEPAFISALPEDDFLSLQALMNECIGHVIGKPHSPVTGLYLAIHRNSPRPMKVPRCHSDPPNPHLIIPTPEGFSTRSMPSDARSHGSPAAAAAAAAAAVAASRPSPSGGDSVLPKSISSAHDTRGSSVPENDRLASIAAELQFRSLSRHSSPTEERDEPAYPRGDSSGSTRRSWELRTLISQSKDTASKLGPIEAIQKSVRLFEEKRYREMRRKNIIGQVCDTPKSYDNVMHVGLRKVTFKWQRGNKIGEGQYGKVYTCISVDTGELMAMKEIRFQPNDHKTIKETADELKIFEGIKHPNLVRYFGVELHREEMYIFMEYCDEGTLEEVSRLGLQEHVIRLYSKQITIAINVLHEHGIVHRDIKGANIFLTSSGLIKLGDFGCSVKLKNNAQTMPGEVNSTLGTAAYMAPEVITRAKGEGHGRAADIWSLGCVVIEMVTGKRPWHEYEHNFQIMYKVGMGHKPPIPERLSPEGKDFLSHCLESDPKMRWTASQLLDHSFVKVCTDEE
Sequence of UniProt P42336 (whole entry, unmodified, looked up): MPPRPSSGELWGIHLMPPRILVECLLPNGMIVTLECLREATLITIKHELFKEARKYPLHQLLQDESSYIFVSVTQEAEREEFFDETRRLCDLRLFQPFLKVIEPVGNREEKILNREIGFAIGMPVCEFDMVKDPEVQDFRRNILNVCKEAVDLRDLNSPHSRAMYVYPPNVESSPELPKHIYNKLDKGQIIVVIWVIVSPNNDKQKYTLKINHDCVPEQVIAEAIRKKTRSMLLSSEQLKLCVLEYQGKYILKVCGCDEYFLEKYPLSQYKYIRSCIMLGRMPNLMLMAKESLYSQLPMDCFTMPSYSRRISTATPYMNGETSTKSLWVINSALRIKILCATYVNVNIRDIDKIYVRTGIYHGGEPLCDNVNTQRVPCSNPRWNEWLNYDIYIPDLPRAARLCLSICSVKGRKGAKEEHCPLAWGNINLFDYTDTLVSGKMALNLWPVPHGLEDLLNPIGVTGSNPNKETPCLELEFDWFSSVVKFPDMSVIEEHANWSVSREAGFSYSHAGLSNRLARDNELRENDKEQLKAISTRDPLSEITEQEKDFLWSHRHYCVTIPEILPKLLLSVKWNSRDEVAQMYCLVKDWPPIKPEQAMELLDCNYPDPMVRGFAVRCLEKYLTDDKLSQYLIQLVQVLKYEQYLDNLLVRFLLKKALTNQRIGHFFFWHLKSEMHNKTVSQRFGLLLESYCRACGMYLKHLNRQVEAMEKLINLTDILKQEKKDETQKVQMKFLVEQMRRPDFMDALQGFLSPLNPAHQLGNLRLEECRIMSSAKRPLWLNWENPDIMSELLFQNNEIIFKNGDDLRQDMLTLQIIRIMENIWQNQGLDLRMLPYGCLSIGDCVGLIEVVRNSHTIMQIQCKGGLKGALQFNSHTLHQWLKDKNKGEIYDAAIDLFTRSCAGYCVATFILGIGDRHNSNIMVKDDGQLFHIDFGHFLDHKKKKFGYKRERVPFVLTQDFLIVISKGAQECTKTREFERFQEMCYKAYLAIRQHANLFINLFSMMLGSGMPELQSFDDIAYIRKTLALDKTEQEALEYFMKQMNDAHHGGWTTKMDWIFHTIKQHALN
Sequence of UniProt O15530 (whole entry, looked up): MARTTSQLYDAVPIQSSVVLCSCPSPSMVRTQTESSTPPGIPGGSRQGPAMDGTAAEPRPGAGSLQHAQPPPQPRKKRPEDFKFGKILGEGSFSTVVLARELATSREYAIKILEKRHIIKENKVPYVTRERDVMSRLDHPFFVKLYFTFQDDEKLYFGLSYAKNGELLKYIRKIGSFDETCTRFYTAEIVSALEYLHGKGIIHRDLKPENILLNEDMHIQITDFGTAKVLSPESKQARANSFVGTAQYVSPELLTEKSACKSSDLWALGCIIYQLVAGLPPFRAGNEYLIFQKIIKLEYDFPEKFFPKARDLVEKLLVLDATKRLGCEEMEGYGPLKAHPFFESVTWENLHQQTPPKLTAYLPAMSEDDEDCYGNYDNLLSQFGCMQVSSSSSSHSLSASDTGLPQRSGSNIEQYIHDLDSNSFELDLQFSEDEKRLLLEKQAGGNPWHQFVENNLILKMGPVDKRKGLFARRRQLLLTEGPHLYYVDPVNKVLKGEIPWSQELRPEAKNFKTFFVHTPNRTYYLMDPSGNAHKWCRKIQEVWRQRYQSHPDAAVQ

Study 1
Compound: O=C(NCCCC1CCCCC1)c1ccc(CNC(=O)c2cnn(-c3ccccc3)c2C(F)(F)F)cc1
Read-out: cell-free assay
Method: competition with immobilised ligand
Concentration: 0.1 µM
Inhibitor of nuclear factor kappa-B kinase subunit epsilon (IKBKE, Homo sapiens, UniProt Q14164) — remaining binding: 78%.
It gave 100% for remaining binding (Protein kinase C eta type (PRKCH, Homo sapiens, UniProt P24723)).
It gave 100% for remaining binding (Atypical kinase COQ8A, mitochondrial (COQ8A, Homo sapiens, UniProt Q8NI60)).
Serine/threonine-protein kinase RIO2 (RIOK2, Homo sapiens, UniProt Q9BVS4) — remaining binding: 100%.
For Mitogen-activated protein kinase kinase kinase 4 (MAP3K4, Homo sapiens, UniProt Q9Y6R4): remaining binding read 100%.
For Serine/threonine-protein kinase 32C (STK32C, Homo sapiens, UniProt Q86UX6): remaining binding read 100%.
For Epidermal growth factor receptor (EGFR, Homo sapiens, UniProt P00533, G719C): remaining binding read 96%.
Tyrosine-protein kinase Fgr (FGR, Homo sapiens, UniProt P09769) — remaining binding: 95%.
The remaining binding was 100% (Mitogen-activated protein kinase kinase kinase 12 (MAP3K12, Homo sapiens, UniProt Q12852)).
Proto-oncogene tyrosine-protein kinase receptor Ret (RET, Homo sapiens, UniProt P07949, M918T) — remaining binding: 100%.
It gave 89% for remaining binding (Receptor-interacting serine/threonine-protein kinase 1 (RIPK1, Homo sapiens, UniProt Q13546)).
It gave 100% for remaining binding (3-phosphoinositide-dependent protein kinase 1 (PDPK1, Homo sapiens, UniProt O15530)).
It gave 100% for remaining binding (Cyclin-dependent kinase 4, with cyclin D3 (CDK4, Homo sapiens, UniProt P11802)).
For Casein kinase I isoform alpha (CSNK1A1, Homo sapiens, UniProt P48729): remaining binding read 99%.
It gave 77% for remaining binding (Membrane-associated tyrosine- and threonine-specific cdc2-inhibitory kinase (PKMYT1, Homo sapiens, UniProt Q99640)).
Phosphatidylinositol 4,5-bisphosphate 3-kinase catalytic subunit alpha isoform (PIK3CA, Homo sapiens, UniProt P42336, C420R) — remaining binding: 85%.
Mitogen-activated protein kinase kinase kinase 2 (MAP3K2, Homo sapiens, UniProt Q9Y2U5) — remaining binding: 100%.
It gave 100% for remaining binding (Epidermal growth factor receptor (EGFR, Homo sapiens, UniProt P00533, A750P/del747-749)).
Serine/threonine-protein kinase Nek6 (NEK6, Homo sapiens, UniProt Q9HC98) — remaining binding: 83%.
Phosphatidylinositol 4,5-bisphosphate 3-kinase catalytic subunit beta isoform (PIK3CB, Homo sapiens, UniProt P42338) — remaining binding: 100%.

Study 2
Target: Dual specificity tyrosine-phosphorylation-regulated kinase 4 (DYRK4, Homo sapiens, UniProt Q9NR20)
Sequence of UniProt Q9NR20 (whole entry, looked up): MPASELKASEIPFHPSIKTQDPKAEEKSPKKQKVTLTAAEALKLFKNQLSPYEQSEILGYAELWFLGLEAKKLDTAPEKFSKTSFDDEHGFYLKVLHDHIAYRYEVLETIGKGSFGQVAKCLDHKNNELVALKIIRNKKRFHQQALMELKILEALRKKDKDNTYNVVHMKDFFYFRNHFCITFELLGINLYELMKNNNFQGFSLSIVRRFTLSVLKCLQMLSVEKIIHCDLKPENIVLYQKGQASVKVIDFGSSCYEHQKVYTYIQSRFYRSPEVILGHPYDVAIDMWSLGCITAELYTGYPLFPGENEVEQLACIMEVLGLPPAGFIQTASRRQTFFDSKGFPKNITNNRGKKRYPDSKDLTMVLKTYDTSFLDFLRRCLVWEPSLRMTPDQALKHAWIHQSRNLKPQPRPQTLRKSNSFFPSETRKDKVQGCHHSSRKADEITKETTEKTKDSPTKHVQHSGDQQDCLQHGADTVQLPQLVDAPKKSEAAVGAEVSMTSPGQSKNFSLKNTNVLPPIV
Read-out: enzyme activity
Mode: inhibitor
Concentration: 0.5 µM
Relative to: control
CN(C)C[C@H]1CCn2c(c(C3=C(c4cn(C)c5ccccc45)C(=O)NC3=O)c3ccccc32)C1 gave a remaining activity of 98.9%.
The remaining activity of N#Cc1c(NC(=O)c2cccc3ccccc23)sc2c1CCCC2 is reported as 98.1%.
The remaining activity of O=C(NC(NC(=S)Nc1ccc(F)c([N+](=O)[O-])c1)C(Cl)(Cl)Cl)C(c1ccccc1)c1ccccc1 (centres unmarked) is reported as 104%.
CCN(CC)CCNC(=O)c1c(C)[nH]c(/C=C2\C(=O)Nc3ccc(F)cc32)c1C has a remaining activity of 104%.

Study 3
Target: RING finger protein unkempt homolog, zinc fingers 1-6, GST-SBP tag (UNK, Homo sapiens, UniProt Q9C0B0, residues 30-357)
Method: RNA Bind-n-Seq
Form: RNA
Matrix: in vitro
Concentration: not given
Notes: RNA with constant flanks, ends assumed
Relative to: input RNA pool
Reading: higher = stronger binding
Residues (chain): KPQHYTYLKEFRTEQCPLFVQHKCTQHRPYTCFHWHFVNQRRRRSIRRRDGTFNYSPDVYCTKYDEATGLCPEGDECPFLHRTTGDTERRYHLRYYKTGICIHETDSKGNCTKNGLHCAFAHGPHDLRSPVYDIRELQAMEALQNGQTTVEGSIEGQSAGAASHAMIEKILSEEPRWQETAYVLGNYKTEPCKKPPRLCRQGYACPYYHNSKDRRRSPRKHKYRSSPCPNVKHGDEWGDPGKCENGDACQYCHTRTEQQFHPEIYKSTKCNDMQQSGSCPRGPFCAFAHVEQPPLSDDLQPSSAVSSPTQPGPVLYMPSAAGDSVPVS
With `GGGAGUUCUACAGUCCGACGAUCCUAAGCUCAGCUAAUGGAAGAAGAGUCUAGUUUCUUUGAGGCUUUGAUUUUGGUUAAACUACCGAGCUCAUACCUUUCUGUAUGGUGCAGCUUACUAUUGUCUUUGGAUUGGUAACUUAACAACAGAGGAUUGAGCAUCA` the bound/input enrichment was 0.0433 ratio.
The bound/input enrichment of `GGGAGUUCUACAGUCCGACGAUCCCUGAGUUCGAGCCAGUUUUUAGUCUUUUUGCCUUCACCAACAAAAUUACUUCUGUGCACAGCCGAAUUAUUUGGUCUUGUGAUUGGAGUCCUGACAGCAAGUAUUUCUUCACUGGGAGUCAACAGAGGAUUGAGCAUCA` is reported as 0.477 ratio.
For `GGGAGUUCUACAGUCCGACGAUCCGGAGGUAAACCCUGCACGCACAUCGUGCUUCGGCGUGUCAGGUAUUUGAAUUUAGAGUUCCGUUUCCCAUAACAUUUUCUACAAGAAGAAUCUUGGUAGUGUCUCAAAGACAUCACUGACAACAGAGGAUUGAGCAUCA`, the bound/input enrichment was 0.249 ratio.
With `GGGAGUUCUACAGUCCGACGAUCAGCACUGAGAGCAGUCCAUCCAUUGCCACAGUAUGUCAUAGUGAGGAAGUCAGGGAGACCUCCGAAAGCAAUACAAACCUUCAUAAUCGCACUGAGACAGAGCAUACUCCAGCAGUUUGUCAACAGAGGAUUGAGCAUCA` the bound/input enrichment was 0.25 ratio.
`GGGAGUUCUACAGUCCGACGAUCCAGCCGCUCCUGGUAUCAGAGCUGCUUUCCAGAGGGCAGCACAGCCAGGGCCGGGUGUCUUCCGGGAUCAGUUUUUCCAAGACUCCAGAAGGUGCCAGGUUCUCCCCUUGAGCUCCUGCUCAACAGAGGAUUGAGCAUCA` gave a bound/input enrichment of 0.0519 ratio.
The bound/input enrichment of `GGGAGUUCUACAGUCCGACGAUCGUAUGGUUACUAAAAAGUACCAGCAUGUUAACUUUAUUACAAUUUGUAUUACUUUCUCUGCCGUUCCUAAUGGAUUCAAUUACGGACUCUGGAUAUUUGCACUUAUGUACUUGAUACUGACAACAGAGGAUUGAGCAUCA` is reported as 0.479 ratio.
For `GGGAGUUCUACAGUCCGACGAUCACACCUCUGUUUCUUGCUGCCCGGGAGGGGAGCUAUGAAGCAGCCAAGAUCCUGUCCGACCAUUUUGCCAAUCGAGACAUCACAGACCAUAUGGAUCGUCUUCCCCGGGAUGUGGCUCGGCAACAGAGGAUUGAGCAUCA`, the bound/input enrichment was 0.125 ratio.
`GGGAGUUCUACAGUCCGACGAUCUAGUGAAUGGUUUCCCCAGUGUAUAUGAAUGUUUUAAGUGUUUCCAAUAGCUUAUGAAAUUCCGGAGCUUUCUAAUACUCGUUUUAUAAAUUUAAUCAUUUGCUAAUGGAAAUUUUACCACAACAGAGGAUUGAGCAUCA` gave a bound/input enrichment of 4.66 ratio.

Study 4
Target: CCNB3, cyclin fold, Cln2 fusion (human)
Method: yeast growth competition, sequencing
Matrix: yeast
Notes: weak parent motif
Relative to: not given
Reading: higher = stronger binding
Starting sequence: CDKN1A docking peptide (human); SKACRRLFGPVDS
`P10H` — result for “normalised enrichment score”: 0.39.
Under “normalised enrichment score”, `P10M` is recorded as 0.424.
Under “normalised enrichment score”, `F8C` is recorded as 0.0222.
`G9M`: “normalised enrichment score” 0.727.
`F8N`: “normalised enrichment score” 0.181.
`G9L` — result for “normalised enrichment score”: 0.449.
For `R5W`, “normalised enrichment score” read 0.345.
For `P10C`, “normalised enrichment score” read 0.333.

Mixed results
`SDHA (Homo sapiens, UniProt P31040)` — result for cross-linked residues: “K517 to K139” (H1-8 (Homo sapiens, UniProt Q8IZA3); cross-linking MS; cells; added: BSPNO).

Excerpt of the above (study 4):
Under “normalised enrichment score”, `P10M` is recorded as 0.424.
Under “normalised enrichment score”, `F8C` is recorded as 0.0222.
`G9M`: “normalised enrichment score” 0.727.
